# Results collected from several papers.
# A part holds a random share of what one study measured. Positions count from the first letter of the parent shown.

# Sample 1 — technique: universal PBM; molecule type: double-stranded DNA, one strand shown; medium: in vitro; tested at: 600 nM; reading: higher = stronger binding
# Target: Sal-like protein 4, full length isoform A (SALL4, Homo sapiens, UniProt Q9UJQ4, residues 1-1053)
# Chain of UniProt Q9UJQ4 (whole entry, looked up): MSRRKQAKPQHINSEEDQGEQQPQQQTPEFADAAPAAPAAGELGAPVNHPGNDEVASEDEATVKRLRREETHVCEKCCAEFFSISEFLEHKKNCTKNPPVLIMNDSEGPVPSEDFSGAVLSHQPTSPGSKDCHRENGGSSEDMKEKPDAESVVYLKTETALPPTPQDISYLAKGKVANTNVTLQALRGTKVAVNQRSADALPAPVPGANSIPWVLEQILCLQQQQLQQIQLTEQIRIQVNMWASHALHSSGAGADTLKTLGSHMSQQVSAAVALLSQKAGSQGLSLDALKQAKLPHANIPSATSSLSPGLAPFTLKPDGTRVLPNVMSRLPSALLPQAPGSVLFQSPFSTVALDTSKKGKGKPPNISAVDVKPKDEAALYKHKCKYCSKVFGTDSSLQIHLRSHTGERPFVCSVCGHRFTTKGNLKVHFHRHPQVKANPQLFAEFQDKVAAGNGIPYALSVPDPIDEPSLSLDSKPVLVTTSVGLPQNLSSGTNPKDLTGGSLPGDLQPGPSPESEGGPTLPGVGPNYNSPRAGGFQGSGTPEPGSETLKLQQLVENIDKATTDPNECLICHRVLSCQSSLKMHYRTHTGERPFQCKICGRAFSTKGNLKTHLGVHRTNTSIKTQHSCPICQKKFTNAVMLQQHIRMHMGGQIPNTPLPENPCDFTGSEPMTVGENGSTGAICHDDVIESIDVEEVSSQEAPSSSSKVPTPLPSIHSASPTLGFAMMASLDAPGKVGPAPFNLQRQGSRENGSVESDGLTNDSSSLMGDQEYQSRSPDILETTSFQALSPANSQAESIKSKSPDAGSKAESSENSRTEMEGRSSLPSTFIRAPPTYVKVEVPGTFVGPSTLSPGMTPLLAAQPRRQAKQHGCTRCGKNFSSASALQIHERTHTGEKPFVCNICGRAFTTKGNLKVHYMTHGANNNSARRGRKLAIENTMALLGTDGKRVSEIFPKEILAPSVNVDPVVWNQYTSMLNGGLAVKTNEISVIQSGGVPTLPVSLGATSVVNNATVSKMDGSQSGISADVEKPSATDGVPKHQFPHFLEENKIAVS
# Setting: 8-mer, flanks averaged, mean of replicates
Sequence,E-score
AATTGGCC,-0.0517
AATCGATA,0.2
AGTTATCC,0.0638
GGCTCTTA,0.027
AGAAGACT,-0.0287
ATGCGGGA,0.0358
ATTCTTGG,0.102
AATCGGTG,-0.0713
CAGCCTCA,-0.16
AGATCGAC,-0.128
ACCAACGT,-0.0108
CGGTCTAA,0.0435
CTTCTGTA,0.102

# Sample 2 — technique: DHFR PCA, deep sequencing; medium: yeast; with: (+)-ABA 710 µM; baseline: wild-type fitted maximum; reading: higher = stronger binding
# Target: ABI1, truncated, D143A, DHFR fusion (Arabidopsis thaliana)
# Setting: methotrexate growth selection, single substitutions
# Parent: PYL1, truncated, DHFR fusion (Arabidopsis thaliana); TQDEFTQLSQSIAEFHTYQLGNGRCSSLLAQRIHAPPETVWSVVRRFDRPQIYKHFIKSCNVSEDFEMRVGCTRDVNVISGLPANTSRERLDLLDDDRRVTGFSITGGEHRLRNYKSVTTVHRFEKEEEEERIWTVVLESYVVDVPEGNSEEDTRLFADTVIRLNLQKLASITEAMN; partner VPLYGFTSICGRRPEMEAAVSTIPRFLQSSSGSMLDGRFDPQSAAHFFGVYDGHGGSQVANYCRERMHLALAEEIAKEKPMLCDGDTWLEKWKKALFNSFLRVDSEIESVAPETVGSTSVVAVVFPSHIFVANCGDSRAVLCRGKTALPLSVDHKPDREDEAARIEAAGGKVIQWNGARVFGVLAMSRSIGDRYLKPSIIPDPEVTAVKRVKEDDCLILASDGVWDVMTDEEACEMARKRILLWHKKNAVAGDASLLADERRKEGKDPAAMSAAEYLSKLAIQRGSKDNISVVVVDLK
Change,relative binding score
E127I,103%
R74G,1.12%
Y53C,65.7%
K54A,-11.1%
E109H,108%
S11R,97.7%
L91E,8.62%

# Sample 3 — target: CCNB1, cyclin fold, Cln2 fusion (human); technique: yeast growth competition, sequencing; medium: yeast; setting: weak parent motif; baseline: not given; reading: higher = stronger binding
# Parent: WEE1 docking peptide (human); HKTFRKLRLFDTP
Change,normalised enrichment score
HKTFRKLRLQDTP [F10Q],-0.181
HCTFRKLRLFDTP [K2C],0.837
HKTFRKLRLFETP [D11E],0.235
HKTFRKLRLFDWP [T12W],0.864
HKTFRKLRSFDTP [L9S],1.33
IKTFRKLRLFDTP [H1I],1.34
HKTWRKLRLFDTP [F4W],1.18
NKTFRKLRLFDTP [H1N],0.56
HKTFRKLRLFITP [D11I],-0.965
HKTFRKPRLFDTP [L7P],-0.0494
HKTERKLRLFDTP [F4E],0.215

# Further values, each from its own experiment
Molecule,target,test,test system,setting,scale,measurement,result
"PhoQ, residues 284 288 289 292 302 303 SNGLAW","PhoP, residues 12 14 15 18 19 QYCSL (Escherichia coli, UniProt P23836)","Sort-seq, item: YFP reporter",E. coli,"PhoQ-PhoP variant library, with: 10 µM Mg2+","baseline: high Mg2+ state, higher = stronger signaling",fold induction,9.09

# Excerpt of the above (sample 2):
Change,relative binding score
E127I,103%
R74G,1.12%
Y53C,65.7%
